Measured values pooled from the literature.
Each numbered part is a random draw from the data of one study; scales do not carry over between parts.

Sample 1
Target: RNA binding protein fox-1 homolog 2, RRM domain, GST-SBP tag (RBFOX2, Homo sapiens, UniProt O43251-10, residues 100-194)
Method: RNA Bind-n-Seq
Form: RNA
Medium: in vitro
Tested at: 365 nM
Notes: natural RNA segment, single round, ends assumed
Baseline: no-protein control
Direction: higher = stronger binding
Residues (chain): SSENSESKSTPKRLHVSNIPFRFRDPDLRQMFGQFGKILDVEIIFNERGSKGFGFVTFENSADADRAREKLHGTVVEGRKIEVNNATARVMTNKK
Strand	RBNS enrichment (R)
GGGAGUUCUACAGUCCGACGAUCUUUGUUUGUCACCUCUAUUUAGUUGUUACCUGUUUCUCUCUUCUUUCACCCCUUGUCCUUUUCCACCCUUUUAAGAGUUACGCUAGCAGAUCUUACUCCACGUAUACUUUUGGAAUUCUCGGGUGCCAA	0.767
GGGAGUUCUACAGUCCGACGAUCUGCAGCCAAACCUGAUGACCUGCAUUCAAUUCCUGGGUCCCACGGGACAGAGGGAGAGAGUCCACUACUGAAAGGAACGCUCAAACCUCCUCACACAGGUCCUUGUGCCUUGGAAUUCUCGGGUGCCAA	0.217
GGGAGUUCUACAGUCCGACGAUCCACACACACACGUUUGCAGGGGUGUCUCGGUUUGCAUUUCUGUUGGAAUGAUCCGAACUGGACUCACAUCCUGUAUGGUGGAUGGACUGUAUAUUGAGGGUUCCAUUCUUUGGAAUUCUCGGGUGCCAA	0.317
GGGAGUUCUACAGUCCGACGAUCGUUUUCAUUGAUUAUAUGGGUAUAUAUUCAUCUAAUAAAUCAGUGAACUGUUCCUCAUGUUGCUGAAUUUGUAGUUGUUGGUUUAUUUUAAUGGUAUGUACAAGUUGAGUUGGAAUUCUCGGGUGCCAA	1.01
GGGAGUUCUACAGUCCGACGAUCGCCUGCAGUCAGUUAUUAUGUAUAGGAGGUGAGCUAGUUAACAAACUUGUACCACAAAACAAUAUCGCUUUAACUUUUCUAAAGCCAAAUUUCCCAUGUAAGCUGCAGUUUGGAAUUCUCGGGUGCCAA	0.33
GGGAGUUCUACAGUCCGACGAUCCAUUUAAAAUUGUAAUAGAUCUUAACCAUUUUCCCCCUCACCCUAACUCUCUUAUUCUGCCGCCACAAUGCAAGCAUAGUUUGAUGUUUUCGUUAUUGCCUUUUUUGAGAUGGAAUUCUCGGGUGCCAA	0.819
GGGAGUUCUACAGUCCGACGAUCACUAAAGACAAUAUAAAGAAAAAUAAUCUAAGAAGAUAAAGGGGCUUUCUGCUUAAAGAUAUGUAGAUAAUAUUCCUAAGUAUGCUGAAAUAAAAUACUGUUUCAAACUGUGGAAUUCUCGGGUGCCAA	0.586

Sample 2
Target: Ras GTPase-activating protein-binding protein 1, C-terminal RGG region (G3BP1, Homo sapiens, UniProt Q13283)
Sequence of UniProt Q13283 (whole entry, looked up): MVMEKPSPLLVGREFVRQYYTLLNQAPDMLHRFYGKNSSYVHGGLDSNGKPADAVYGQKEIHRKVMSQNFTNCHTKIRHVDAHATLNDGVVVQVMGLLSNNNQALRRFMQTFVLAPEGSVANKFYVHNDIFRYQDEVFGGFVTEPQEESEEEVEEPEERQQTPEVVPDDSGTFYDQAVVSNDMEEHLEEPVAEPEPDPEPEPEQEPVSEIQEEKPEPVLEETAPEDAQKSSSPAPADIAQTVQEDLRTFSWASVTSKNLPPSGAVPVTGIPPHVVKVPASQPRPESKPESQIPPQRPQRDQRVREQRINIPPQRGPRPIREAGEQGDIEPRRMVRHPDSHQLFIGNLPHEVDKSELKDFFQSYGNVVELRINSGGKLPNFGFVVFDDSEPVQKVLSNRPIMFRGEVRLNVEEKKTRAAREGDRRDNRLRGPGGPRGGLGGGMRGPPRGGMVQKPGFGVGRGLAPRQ
Method: RNA Bind-n-Seq
Form: RNA
Medium: in vitro
Tested at: 1 µM
Notes: whole 134-nt RNA, ends assumed
Together with: 150 mM KCl
Baseline: input library
Direction: higher = stronger binding
Strand	log2 enrichment
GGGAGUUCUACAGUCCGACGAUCGUCCUGUGCUACACAUCGUAUGUACCGAAUCAAAGUGUGUGUGUGUGUGUGUGUGUAAAAAAGUAUUAUGUUACGCCGUUCGGAUCUGCAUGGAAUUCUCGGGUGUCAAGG	1.08
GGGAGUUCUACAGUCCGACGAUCCACAGACAACACGCACCCACACAGACACAGAGGGAAGGGGUUGGGAUGGGGACGGGGUGCACAGCAGGGCGGGGUAGGACCCCAGCCCCUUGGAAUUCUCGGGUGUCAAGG	-0.0343
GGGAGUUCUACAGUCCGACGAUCGUCCUGUGCUACACAUCGUAUGUACCGAAUCGGGAAAAAAAGGGAGGGUUUUUUUGGGAAAGUAUUAUGUUACGCCGUUCGGAUCUGCACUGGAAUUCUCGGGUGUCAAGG	0.205
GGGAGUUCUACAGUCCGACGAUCUGGCCCUGGUGGCAUGCGGGGAGGAAGAGGUGGCCUCAUGGAUCGUGGUGGUCCCGGUGGAAUGUUCAGAGGUGGCCGUGGUGGAGCCAGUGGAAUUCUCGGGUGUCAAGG	3.48
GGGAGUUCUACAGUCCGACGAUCUAACUUUAGAGGAGGAUCUGAUGGAUAUGGCAGUGGACGUGGAUUUGGGGAUGGCUAUAAUGGGUAUGGAGCAGGACCUGGAGGUGGCAAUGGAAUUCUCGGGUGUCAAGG	-0.67
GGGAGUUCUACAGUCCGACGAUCUCGCCCUGGUGGCAUGCGGGGAGGAAGAGGUGGCCUCAUGGAUCGUGGUGGUCCCGGUGGAAUGUUCAGAGGUGGCCGUGGUGGAGACAGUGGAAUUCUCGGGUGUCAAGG	2.37
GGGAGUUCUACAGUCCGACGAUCUAACUUUAGAGGAGGAUCUGAUGGAUAUGGCAGUGGACGUGGAUUUAGGGAUGGCUAUAAUGGGUAUGGAGGAGGACCUGGAGGUGGCAAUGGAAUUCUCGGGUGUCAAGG	-0.889

Sample 3
Target: Histone acetyltransferase KAT6A, winged helix 2, GST fusion (KAT6A, Homo sapiens, UniProt Q92794, residues 85-181)
Method: protein binding microarray
Form: double-stranded DNA, one strand shown
Medium: in vitro
Tested at: not given
Notes: 8-mer, flanks averaged, mean of 2 arrays, mostly near background
Baseline: not given
Direction: higher = stronger binding
Construct (chain): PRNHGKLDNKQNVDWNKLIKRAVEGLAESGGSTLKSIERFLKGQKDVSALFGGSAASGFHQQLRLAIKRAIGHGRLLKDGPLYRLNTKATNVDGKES
Strand	E-score
AGTCAAAT	-0.0619
CAGATGAG	0.00571
GGGGGGCA	-0.0318
ATAGGATA	-0.084
GGAAAACC	-0.0309
AGCAGGAT	-0.0683
CGGCTAAA	0.16
ATGTTCGA	0.0292
CCGTTAAC	-0.042
ATCCGTCA	-0.126

Mixed results
Substance	target	test	test system	conditions	scale	measurement	value
PhoQ, residues 284 288 289 292 302 303 NLGVHL	PhoP, residues 12 14 15 18 19 GHCSL (Escherichia coli, UniProt P23836)	Sort-seq, refers to: YFP reporter	E. coli	PhoQ-PhoP variant library, together with: 10 µM Mg2+	baseline: high Mg2+ state, higher = stronger signaling	fold induction	0.878

For quick reference, copied from above (sample 2):
Strand	log2 enrichment
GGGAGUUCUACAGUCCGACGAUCUAACUUUAGAGGAGGAUCUGAUGGAUAUGGCAGUGGACGUGGAUUUGGGGAUGGCUAUAAUGGGUAUGGAGCAGGACCUGGAGGUGGCAAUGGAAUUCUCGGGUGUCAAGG	-0.67
